Published values from different studies.
Every numbered part comes from another study and shows a few of its results, in no order. Positions count from the first letter of the parent shown.

Sample 1 — technique: protein binding microarray; form: double-stranded DNA, one strand shown; matrix: in vitro; concentration: not given; baseline: not given; direction: higher = stronger binding
Target: Histone acetyltransferase KAT6A, both winged helices, GST fusion (KAT6A, Homo sapiens, UniProt Q92794, residues 1-181)
Setting: 8-mer, flanks averaged, mean of 2 arrays, mostly near background
Target sequence (chain): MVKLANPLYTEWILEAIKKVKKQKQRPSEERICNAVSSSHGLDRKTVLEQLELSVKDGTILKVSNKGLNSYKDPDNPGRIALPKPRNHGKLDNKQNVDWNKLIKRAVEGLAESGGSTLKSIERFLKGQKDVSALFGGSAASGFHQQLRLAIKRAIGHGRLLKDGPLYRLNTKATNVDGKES
Sequence | E-score
ACCTAACG | -0.00607
GCCCACGC | 0.04
GAACTACA | -0.0595
GGGAGTAA | -0.134
GTGTCGCA | 0.142

Sample 2 — technique: RNA Bind-n-Seq; form: RNA; matrix: in vitro; concentration: not given; setting: RNA with constant flanks, ends assumed; baseline: input RNA pool; direction: higher = stronger binding
Target: RING finger protein unkempt homolog, zinc fingers 1-6, GST-SBP tag (UNK, Homo sapiens, UniProt Q9C0B0, residues 30-357)
Chain of UniProt Q9C0B0 (30-357, looked up): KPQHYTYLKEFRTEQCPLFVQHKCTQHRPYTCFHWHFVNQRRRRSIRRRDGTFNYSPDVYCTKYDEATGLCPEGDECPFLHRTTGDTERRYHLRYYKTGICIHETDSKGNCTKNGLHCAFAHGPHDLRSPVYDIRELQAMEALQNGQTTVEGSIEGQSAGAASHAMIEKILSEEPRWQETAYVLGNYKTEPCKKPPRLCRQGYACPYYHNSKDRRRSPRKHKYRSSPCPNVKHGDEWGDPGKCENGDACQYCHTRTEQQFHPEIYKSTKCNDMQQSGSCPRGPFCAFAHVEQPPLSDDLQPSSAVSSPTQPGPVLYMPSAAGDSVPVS
Sequence | bound/input enrichment [ratio]
GGGAGUUCUACAGUCCGACGAUCGGAGAGGCCCUGCAUUGCCAGCUGUCCGUUCCUCCAUUCAUCUGUUUCUUCUGCUGCCCUCCGUUUGAUCCUCACCAUCCACGUUUUGGCUUCCGUUUGCCCUUAUCAAAGGGUCUCUGCCAACAGAGGAUUGAGCAUCA | 0.136
GGGAGUUCUACAGUCCGACGAUCCUGACACUACUCUUCACUGAGCUGGCAAAAGUAAUAGAAAGCUCAGCGAAGGGUUUCCCCCGUUUUAUUUCUGAUAUGUUAUCUAAGUGCAAAGUUCAGAAAGUGAUUCUUCAUUGUUUGCAACAGAGGAUUGAGCAUCA | 0.187
GGGAGUUCUACAGUCCGACGAUCAAAGAUAUCAUUACCAAGGUUGCCAAUGUGGAACUAUACUACAGAGCAAUACAGUUCUACUCCGAAUUCAAGCCUCUGUUGUUAAAUGAUUUGCUGAUGGUGCUGUCUCCACGGUUGGAUCAACAGAGGAUUGAGCAUCA | 0.18
GGGAGUUCUACAGUCCGACGAUCGGGUCGUGGUUCAUCCAGUCCCUUUGCAGCAUGCUGAAGCUGUACGCGCACAAGCCCGAAUUUAUGCACAUUCUCACUCGCGUUAACAGGAAGGUGGCAACGGAAUUCGAGUCCUUCUCCCAACAGAGGAUUGAGCAUCA | 0.173

Sample 3 — technique: DHFR PCA, deep sequencing; matrix: yeast; added: (+)-ABA 0.032 µM; baseline: wild-type fitted maximum; direction: higher = stronger binding
Target: ABI1, truncated, D143A, DHFR fusion (Arabidopsis thaliana)
Setting: methotrexate growth selection, single substitutions
Starting sequence: PYL1, truncated, DHFR fusion (Arabidopsis thaliana); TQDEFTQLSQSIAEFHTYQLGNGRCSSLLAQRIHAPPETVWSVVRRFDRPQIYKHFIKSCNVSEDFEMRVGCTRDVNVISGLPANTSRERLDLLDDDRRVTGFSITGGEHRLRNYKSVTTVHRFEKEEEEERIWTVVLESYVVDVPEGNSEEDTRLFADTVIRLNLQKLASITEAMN; partner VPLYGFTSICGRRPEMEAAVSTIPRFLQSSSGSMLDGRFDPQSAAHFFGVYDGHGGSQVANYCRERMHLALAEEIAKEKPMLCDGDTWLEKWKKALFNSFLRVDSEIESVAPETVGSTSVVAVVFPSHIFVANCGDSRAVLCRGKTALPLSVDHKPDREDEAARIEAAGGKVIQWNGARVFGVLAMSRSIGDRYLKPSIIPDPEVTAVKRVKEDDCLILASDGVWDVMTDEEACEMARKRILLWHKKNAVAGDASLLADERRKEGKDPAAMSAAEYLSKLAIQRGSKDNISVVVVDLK
Substitution | relative binding score [%]
S9V | 23.6
W134Y | 75.4
E128G | 65.9

Single results of other studies
Substance | target | assay | test system | setting | scale | measurement | value
PhoQ, residues 284 288 289 292 302 303 GASLAW | PhoP, residues 12 14 15 18 19 FWNTL (Escherichia coli, UniProt P23836) | Sort-seq, item: YFP reporter | E. coli | PhoQ-PhoP variant library, added: 10 µM Mg2+ | baseline: high Mg2+ state, higher = stronger signaling | fold induction | 1.48

For quick reference, copied from above (sample 1):
Sequence | E-score
GGGAGTAA | -0.134
